Measured values pooled from the literature.
Values joined by “and” are separate records of one study, mostly repeats; a detail may differ. ± gives the spread as reported.
Beta-lactamase CTX-M-27: Beta-lactamase CTX-M-27 (Escherichia coli, UniProt Q840M4)
PIN1: Peptidyl-prolyl cis-trans isomerase NIMA-interacting 1 (PIN1, Homo sapiens, UniProt Q13526)
UniProt Q13526, sequence (whole entry, looked up): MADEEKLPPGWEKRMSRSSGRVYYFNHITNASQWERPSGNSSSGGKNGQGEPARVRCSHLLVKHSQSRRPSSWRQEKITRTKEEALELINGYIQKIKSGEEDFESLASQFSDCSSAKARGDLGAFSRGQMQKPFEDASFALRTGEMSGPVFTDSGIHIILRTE
UniProt Q9WYW0, sequence (whole entry, looked up): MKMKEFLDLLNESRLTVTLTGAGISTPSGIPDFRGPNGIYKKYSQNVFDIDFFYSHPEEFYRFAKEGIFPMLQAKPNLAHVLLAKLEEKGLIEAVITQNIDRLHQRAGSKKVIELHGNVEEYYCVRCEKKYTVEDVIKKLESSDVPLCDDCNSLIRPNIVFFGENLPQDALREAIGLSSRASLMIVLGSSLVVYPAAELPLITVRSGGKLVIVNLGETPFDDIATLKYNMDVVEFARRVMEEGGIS
UniProt Q5VT52, sequence (whole entry, looked up): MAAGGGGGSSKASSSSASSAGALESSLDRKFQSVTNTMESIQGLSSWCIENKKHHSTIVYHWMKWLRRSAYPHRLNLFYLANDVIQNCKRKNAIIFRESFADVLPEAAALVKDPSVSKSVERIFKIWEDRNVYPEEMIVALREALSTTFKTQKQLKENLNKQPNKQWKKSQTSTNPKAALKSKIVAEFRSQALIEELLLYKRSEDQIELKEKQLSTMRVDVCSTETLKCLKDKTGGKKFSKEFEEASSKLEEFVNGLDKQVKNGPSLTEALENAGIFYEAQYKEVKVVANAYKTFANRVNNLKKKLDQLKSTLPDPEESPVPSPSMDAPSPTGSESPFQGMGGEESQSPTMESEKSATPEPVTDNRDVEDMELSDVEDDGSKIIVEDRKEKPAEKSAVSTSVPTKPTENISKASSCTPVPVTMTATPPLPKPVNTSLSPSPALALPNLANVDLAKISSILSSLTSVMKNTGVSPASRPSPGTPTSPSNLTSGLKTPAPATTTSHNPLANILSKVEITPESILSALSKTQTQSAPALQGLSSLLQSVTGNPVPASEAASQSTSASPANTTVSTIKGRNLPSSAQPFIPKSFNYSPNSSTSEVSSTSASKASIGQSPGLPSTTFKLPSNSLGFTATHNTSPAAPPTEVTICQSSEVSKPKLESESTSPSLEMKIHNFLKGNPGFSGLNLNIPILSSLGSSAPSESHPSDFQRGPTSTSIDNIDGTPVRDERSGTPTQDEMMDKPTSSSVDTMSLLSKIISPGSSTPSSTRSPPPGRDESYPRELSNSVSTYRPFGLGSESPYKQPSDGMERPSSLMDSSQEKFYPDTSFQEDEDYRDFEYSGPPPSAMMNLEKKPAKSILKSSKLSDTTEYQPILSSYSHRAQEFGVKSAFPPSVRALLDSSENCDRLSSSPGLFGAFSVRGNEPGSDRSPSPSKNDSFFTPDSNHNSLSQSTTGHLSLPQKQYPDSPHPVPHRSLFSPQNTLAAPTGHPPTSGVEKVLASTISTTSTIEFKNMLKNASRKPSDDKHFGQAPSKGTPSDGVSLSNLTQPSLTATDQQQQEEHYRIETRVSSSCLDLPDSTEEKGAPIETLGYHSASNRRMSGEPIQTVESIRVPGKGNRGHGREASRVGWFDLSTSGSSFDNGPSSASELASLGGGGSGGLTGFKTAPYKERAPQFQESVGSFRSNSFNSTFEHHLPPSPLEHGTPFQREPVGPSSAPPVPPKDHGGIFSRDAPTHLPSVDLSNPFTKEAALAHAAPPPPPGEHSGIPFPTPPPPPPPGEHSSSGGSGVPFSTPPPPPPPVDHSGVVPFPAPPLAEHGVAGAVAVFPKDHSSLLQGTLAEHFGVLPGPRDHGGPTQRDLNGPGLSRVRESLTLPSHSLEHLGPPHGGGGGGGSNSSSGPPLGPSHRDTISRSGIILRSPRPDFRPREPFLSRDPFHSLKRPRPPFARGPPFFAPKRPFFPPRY
UniProt P00691, sequence (whole entry, looked up): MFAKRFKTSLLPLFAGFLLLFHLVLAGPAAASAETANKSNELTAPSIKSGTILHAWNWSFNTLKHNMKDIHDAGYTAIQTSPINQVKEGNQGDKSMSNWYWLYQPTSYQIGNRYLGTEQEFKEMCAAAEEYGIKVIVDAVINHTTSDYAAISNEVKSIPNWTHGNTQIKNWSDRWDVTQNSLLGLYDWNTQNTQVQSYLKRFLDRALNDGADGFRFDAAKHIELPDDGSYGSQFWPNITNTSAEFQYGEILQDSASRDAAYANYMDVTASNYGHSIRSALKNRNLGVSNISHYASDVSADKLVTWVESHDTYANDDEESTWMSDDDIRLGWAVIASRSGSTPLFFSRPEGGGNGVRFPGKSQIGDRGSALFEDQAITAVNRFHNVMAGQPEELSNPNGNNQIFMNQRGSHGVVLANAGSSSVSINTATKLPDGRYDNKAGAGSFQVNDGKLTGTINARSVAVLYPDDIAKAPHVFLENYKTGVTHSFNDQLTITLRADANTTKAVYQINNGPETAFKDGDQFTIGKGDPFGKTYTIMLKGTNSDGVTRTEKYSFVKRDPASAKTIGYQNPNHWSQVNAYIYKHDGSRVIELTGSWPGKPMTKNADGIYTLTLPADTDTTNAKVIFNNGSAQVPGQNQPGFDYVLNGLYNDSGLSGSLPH
UniProt P18031, sequence (whole entry, looked up): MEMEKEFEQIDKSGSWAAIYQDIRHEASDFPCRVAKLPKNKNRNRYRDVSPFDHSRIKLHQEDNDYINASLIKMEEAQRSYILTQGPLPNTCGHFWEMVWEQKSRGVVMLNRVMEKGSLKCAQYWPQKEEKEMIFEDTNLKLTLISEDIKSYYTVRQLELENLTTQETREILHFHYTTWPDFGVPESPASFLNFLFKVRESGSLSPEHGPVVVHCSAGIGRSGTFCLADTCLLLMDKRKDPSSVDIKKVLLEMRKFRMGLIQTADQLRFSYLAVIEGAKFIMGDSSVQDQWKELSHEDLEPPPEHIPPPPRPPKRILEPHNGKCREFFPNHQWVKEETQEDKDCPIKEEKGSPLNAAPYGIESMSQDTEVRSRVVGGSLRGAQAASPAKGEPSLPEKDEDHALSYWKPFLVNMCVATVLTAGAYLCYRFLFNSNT
UniProt Q8N8S7, sequence (whole entry, looked up): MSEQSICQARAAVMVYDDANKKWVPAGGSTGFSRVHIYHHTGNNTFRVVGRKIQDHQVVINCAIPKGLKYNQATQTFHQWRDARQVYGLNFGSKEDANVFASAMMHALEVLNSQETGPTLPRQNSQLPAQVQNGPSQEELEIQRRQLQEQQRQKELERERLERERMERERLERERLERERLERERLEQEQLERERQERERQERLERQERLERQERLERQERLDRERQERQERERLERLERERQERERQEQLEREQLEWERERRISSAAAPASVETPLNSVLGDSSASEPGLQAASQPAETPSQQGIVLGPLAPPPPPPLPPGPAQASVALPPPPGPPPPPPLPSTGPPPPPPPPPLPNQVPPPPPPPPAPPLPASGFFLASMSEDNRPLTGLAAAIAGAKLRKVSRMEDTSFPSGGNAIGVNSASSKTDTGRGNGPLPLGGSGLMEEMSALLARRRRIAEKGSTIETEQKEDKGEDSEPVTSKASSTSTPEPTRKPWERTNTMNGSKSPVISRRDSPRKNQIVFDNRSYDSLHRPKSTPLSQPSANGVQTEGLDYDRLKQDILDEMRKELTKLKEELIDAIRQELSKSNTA
UniProt O66465, sequence (whole entry, unmodified, looked up): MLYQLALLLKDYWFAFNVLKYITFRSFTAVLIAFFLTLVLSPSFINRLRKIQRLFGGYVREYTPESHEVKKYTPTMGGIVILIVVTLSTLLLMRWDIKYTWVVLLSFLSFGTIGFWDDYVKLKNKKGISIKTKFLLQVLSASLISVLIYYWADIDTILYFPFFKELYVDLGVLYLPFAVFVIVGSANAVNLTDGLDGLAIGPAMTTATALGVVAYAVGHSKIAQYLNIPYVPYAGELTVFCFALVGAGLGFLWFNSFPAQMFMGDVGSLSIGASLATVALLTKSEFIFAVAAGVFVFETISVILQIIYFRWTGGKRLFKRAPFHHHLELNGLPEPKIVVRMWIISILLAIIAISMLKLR
UniProt Q07741, sequence (whole entry, looked up): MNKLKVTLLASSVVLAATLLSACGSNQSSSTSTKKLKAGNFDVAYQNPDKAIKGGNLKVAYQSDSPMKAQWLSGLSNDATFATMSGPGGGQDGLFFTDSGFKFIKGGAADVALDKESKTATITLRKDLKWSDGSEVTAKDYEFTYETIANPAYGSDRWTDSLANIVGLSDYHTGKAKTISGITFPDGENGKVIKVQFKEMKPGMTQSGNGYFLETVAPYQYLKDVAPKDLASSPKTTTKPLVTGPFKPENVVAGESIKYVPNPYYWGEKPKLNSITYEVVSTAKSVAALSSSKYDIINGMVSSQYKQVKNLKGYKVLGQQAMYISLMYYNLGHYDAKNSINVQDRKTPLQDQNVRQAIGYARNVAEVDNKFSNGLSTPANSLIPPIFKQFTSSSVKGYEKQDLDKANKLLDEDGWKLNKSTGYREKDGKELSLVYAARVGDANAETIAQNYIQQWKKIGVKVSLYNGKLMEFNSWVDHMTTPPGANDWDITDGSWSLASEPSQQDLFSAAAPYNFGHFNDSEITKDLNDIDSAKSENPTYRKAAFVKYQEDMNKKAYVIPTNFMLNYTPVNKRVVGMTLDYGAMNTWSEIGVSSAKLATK
UniProt Q06911, sequence (whole entry, looked up): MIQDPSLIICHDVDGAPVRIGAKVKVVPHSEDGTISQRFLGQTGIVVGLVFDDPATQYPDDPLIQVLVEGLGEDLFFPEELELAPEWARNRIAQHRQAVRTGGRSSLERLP
UniProt Q8JGN5, sequence (whole entry, looked up): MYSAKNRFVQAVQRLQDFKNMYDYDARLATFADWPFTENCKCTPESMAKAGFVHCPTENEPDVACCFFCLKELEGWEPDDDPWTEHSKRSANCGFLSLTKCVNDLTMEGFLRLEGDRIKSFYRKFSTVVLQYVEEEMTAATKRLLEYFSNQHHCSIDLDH
UniProt P10997, sequence (whole entry, looked up): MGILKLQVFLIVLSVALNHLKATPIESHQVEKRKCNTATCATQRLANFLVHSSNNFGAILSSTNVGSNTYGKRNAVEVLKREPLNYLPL

With `O=C(CCCN1CCC2(CC1)C(=O)NCN2c1ccccc1)N(Cc1cccs1)c1ccccc1` the Kd was 1.48 ± 0.197 µM (PDE6D (Homo sapiens, UniProt O43924); binding).
The Kd of `CC(C)P(=[Se])(NP(=[Se])(C(C)C)C(C)C)C(C)C` is reported as 6250 µM (Alpha-amylase (Bacillus subtilis, UniProt P00691); fluorescence quenching; 298 K).
The Kd of `C=Cc1c(C)c2cc3nc(cc4nc(cc5[nH]c(cc1[nH]2)c(C)c5CCC(=O)O)C(CCC(=O)OC)=C4C)C1(C)C3=CC=C(C(=O)OC)C1C(=O)OC` (stereo not drawn) is reported as 115 µM (ACE2 (Homo sapiens, UniProt Q9BYF1); binding, BLI).
The Kd of `CC(=O)NCCOCCOCC(=O)N[C@@H](CC(C)C)C(=O)N1CCC[C@H]1C(=O)N[C@H]1CCCCNC(=O)CSC[C@@H](C(=O)NCC(=O)NCC(=O)N[C@@H](CO)C(=O)NCC(N)=O)NC(=O)CNC(=O)[C@H](CC(C)C)NC(=O)[C@H](CO)NC(=O)[C@H](Cc2ccccc2)NC(=O)[C@H](CC(=O)O)NC(=O)[C@H](Cc2c[nH]c3ccccc23)NC(=O)[C@H](Cc2ccccc2)NC(=O)[C@H](CO)NC(=O)[C@H](CCCCN)NC(=O)[C@@H]2CCCN2C(=O)[C@H](Cc2c[nH]c3ccccc23)NC(=O)[C@H](CCC(N)=O)NC(=O)CNC(=O)[C@H]([C@@H](C)O)NC1=O` is reported as 2.1 µM (TEAD4 (Homo sapiens, UniProt Q15561); binding, FP).
For `CC(C)CC(NC(=O)C(NC(=O)NC(C(=O)O)C(C)C)C1CCNC(=N)N1)C(=O)NCCCNC(C(=O)O)C(OC1OC(CN)C(O)C1O)C1OC(n2ccc(=O)[nH]c2=O)C(O)C1O` (stereo not drawn), the Kd was 0.0297 µM (mraY (Aquifex aeolicus, UniProt O66465, N255A); binding, ITC).
`CC(=O)N[C@H]1CCCCn2cc3ccccc3c2SC[C@@H](C(N)=O)NC(=O)[C@H](CCCNC(=N)N)NC(=O)[C@H](C)NC(=O)[C@H](Cc2c[nH]c3ccccc23)NC(=O)[C@H](Cc2c[nH]cn2)NC(=O)[C@H](CC(C)C)NC(=O)[C@H](Cc2ccccc2)NC(=O)[C@H](CC(C)C)NC1=O` has a Kd of 81 µM (PTPN1 (Homo sapiens, UniProt P18031); binding, BLI).
For `N=C(N)NCCC[C@H](NC(=O)[C@H](Cc1ccccc1)NC(=O)[C@@H]1CCCN1C(=O)[C@H](CO)NC(=O)[C@H](Cc1ccccc1)NC(=O)CNC(=O)[C@@H]1CCCN1C(=O)[C@@H]1CCCN1C(=O)[C@@H](N)CCCNC(=N)N)C(=O)N[C@@H](CCCCNS(=O)(=O)c1ccc(C2=c3cc4c5c(c3Oc3c2cc2c6c3CCCN6CCC2)CCC[N+]=5CCC4)c(S(=O)(=O)[O-])c1)C(=O)O`, the Kd was 15.4 ± 0.7 µM (Oligopeptide-binding protein OppA (oppA, Lactococcus lactis subsp. lactis, UniProt Q07741); binding, fluorescence anisotropy; pH 5, 30 °C, with: dye-labelled peptide).
For `CC(=O)NCCCC[C@H](NC(=O)[C@H](CCCCN)NC(=O)[C@H](Cc1c[nH]cn1)NC(=O)[C@H](CCCNC(=N)N)NC(=O)[C@H](CO)NC(=O)[C@@H](NC(=O)[C@H](CO)NC(=O)[C@H](CCC(N)=O)NC(=O)CNC(=O)[C@H](CCCCN)NC(=O)[C@@H](N)CCCCN)[C@@H](C)O)C(=O)N[C@@H](CC(C)C)C(=O)N[C@@H](CCC(=O)O)C(=O)N[C@@H](Cc1ccccc1)C(=O)N[C@@H](CCCCN)C(=O)N[C@H](C(=O)N[C@@H](CCC(=O)O)C(=O)NCC(=O)O)[C@@H](C)O`, the Kd was 0.11 µM (NAD-dependent protein deacetylase (cobB, Thermotoga maritima, UniProt Q9WYW0); acetylated p53 peptide binding, intrinsic tyrosine fluorescence; pH 9.2, target 0.4 µM).
For `O=C(Nc1cccc(-c2nn[nH]n2)c1)c1cc(-c2ccoc2)cc(C(F)(F)F)c1`, the Kd was 3.28 ± 0.07 µM (Beta-lactamase CTX-M-27; surface plasmon resonance; 25 °C).
With `N[C@@H](Cc1ccc(O)c(I)c1)C(=O)O` the Kd was 1.1 ± 0.1 µM (Iodotyrosine deiodinase (IYD, Thermotoga neapolitana, UniProt B9K712, M41K); FMN fluorescence quenching; 25 °C, M41K variant).
`O=C(Nc1cccc(-c2nn[nH]n2)c1)c1cc(-c2cncnc2)cc(C(F)(F)F)c1` has a Kd of 4.41 ± 0.04 µM (Beta-lactamase CTX-M-27; surface plasmon resonance; 25 °C).
With `O=C(O)C(O)Cc1c[nH]c2ccccc12` (stereo not drawn) the Kd was 45 µM and ~45 µM (txtE (Streptomyces scabiei, UniProt C9ZDC6); binding; pH 8).
With `CC[C@H](C)[C@H](NC(=O)[C@H](CC(=O)O)NC(=O)[C@@H](NC(=O)[C@@H]1CCCN1C(=O)[C@H](CC(N)=O)NC(=O)[C@H](CCC(N)=O)NC(=O)[C@H](CCC(N)=O)NC(=O)[C@H](CC(N)=O)NC(=O)CNC(=O)[C@H](Cc1ccc(O)cc1)NC(=O)[C@@H](NC(=O)[C@H](CCC(=O)O)NC(=O)[C@@H](NC(=O)[C@@H](NC(=O)[C@H](Cc1ccc(O)cc1)NC(=O)[C@H](CCC(=O)O)NC(=O)[C@@H](NC(=O)[C@H](CCC(=O)O)NC(=O)CNC(=O)[C@H](CO)NC(=O)[C@H](CCC(=O)O)NC(=O)CNC(=O)[C@H](C)NC(=O)[C@H](CC(C)C)NC(=O)[C@@H]1CCCN1C(=O)[C@H](CO)NC(=O)[C@H](CCC(N)=O)NC(=O)[C@H](CC(=O)O)NC(=O)[C@H](CCCCN)NC(=O)[C@@H](NC(=O)CNC(=O)[C@H](CCCCN)NC(=O)[C@H](CO)NC(=O)CN)[C@@H](C)O)[C@@H](C)O)[C@@H](C)CC)[C@@H](C)O)C(C)C)C(C)C)C(=O)N[C@@H](CC(=O)O)C(=O)N[C@@H](CCCCN)C(=O)N[C@@H](CCCCN)C(=O)N[C@@H](CC(C)C)C(=O)N1CCC[C@H]1C(=O)N[C@@H](CC(N)=O)C(=O)N[C@@H](CCC(=O)O)C(=O)N[C@H](C(=O)NCC(=O)N[C@@H](Cc1ccccc1)C(=O)N[C@@H](CO)C(=O)NCC(=O)N[C@@H](CC(N)=O)C(=O)N[C@@H](CCSC)C(=O)N[C@H](C(=O)N[C@@H](CCC(=O)O)C(=O)N[C@H](C(=O)N[C@@H](CCC(=O)O)C(=O)N[C@@H](CC(=O)O)C(=O)N[C@H](C(=O)N[C@@H](CCCCN)C(=O)N[C@@H](C)C(=O)O)[C@@H](C)O)[C@@H](C)O)C(C)C)[C@@H](C)O` the Kd was 0.059 µM (Fibronectin (FN1, Homo sapiens, UniProt P02751); binding, ITC; pH 7.4).
With `COC(=O)[C@H](Cc1ccccc1)NC(=O)[C@@H]1CCCN1C(=O)CNC(=O)[C@H](C)NC(C)=O` the Kd was 6.09 µM and ~6 µM (PIN1; binding; pH 7.4).
With `C[C@H](N)C(=O)N[C@@H](CCCNC(=N)N)C(=O)N[C@H](C(=O)N[C@@H](CCCCN)C(=O)N[C@@H](CCC(N)=O)C(=O)N[C@H](C(=O)N[C@@H](C)C(=O)N[C@@H](CCCNC(=N)N)C(=O)N[C@@H](CCCCN)C(=O)N[C@@H](CO)C(=O)N[C@H](C(=O)NCC(=O)O)[C@@H](C)O)[C@@H](C)O)[C@@H](C)OP(=O)(O)O` the Kd was 6.79 ± 0.67 µM (Baculoviral IAP repeat-containing protein 5.1-A (birc5.1-a, Xenopus laevis, UniProt Q8JGN5); ITC; pH 6.8, 25 °C).
The Kd of `CC[C@H](C)[C@@H]1NC(=O)CNC(=O)[C@H](CCSC)NC(=O)[C@H](C(C)C)NC(=O)[C@H]([C@@H](C)O)NC(=O)[C@@H]2CSSC[C@@H]3NC(=O)[C@H](Cc4c[nH]cn4)NC(=O)[C@@H](NC(=O)[C@@H](NC(=O)[C@H](Cc4ccccc4)NC(=O)[C@H](C)N)[C@@H](C)O)CSSC[C@@H](C(=O)N[C@@H](CC(C)C)C(=O)O)NC(=O)[C@H](CSSC[C@H](NC(=O)[C@H](CO)NC(=O)[C@H](CCCNC(=N)N)NC(=O)[C@H](CCCNC(=N)N)NC3=O)C(=O)N[C@@H](Cc3ccc(O)cc3)C(=O)N[C@@H](CO)C(=O)N[C@@H]([C@@H](C)O)C(=O)N[C@@H](CCC(=O)O)C(=O)N[C@@H](Cc3ccc(O)cc3)C(=O)N[C@@H](CO)C(=O)N[C@@H](Cc3ccc(O)cc3)C(=O)NCC(=O)N[C@@H]([C@@H](C)O)C(=O)N2)NC(=O)[C@H](Cc2ccccc2)NC(=O)[C@H](CCCNC(=N)N)NC(=O)[C@H](Cc2c[nH]cn2)NC(=O)[C@H](CC(N)=O)NC1=O` is reported as 6.21 µM (IAPP (Homo sapiens, UniProt P10997); binding, SPR).
`COC(=O)[C@H](Cc1ccccc1)NC(=O)[C@@H]1CCCN1C(=O)[C@H](CCCNC(=N)N)NC(=O)[C@H](C)NC(C)=O` has a Kd of 30.5 µM (PIN1; binding; pH 7.4).
`C[C@@H](O)[C@H](NC(=O)[C@@H]1CCCN1C(=O)[C@H](COP(=O)(O)O)NC(=O)[C@H](Cc1ccc(O)cc1)NC(=O)[C@H](CO)NC(=O)[C@@H]1CCCN1C(=O)[C@H](COP(=O)(O)O)NC(=O)[C@@H](NC(=O)[C@@H]1CCCN1C(=O)[C@H](COP(=O)(O)O)NC(=O)[C@H](Cc1ccc(O)cc1)NC(=O)[C@H](CO)NC(=O)[C@@H]1CCCN1C(=O)[C@@H](N)CO)[C@@H](C)O)C(=O)N[C@@H](COP(=O)(O)O)C(=O)N1CCC[C@H]1C(=O)N[C@@H](CO)C(=O)N[C@@H](Cc1ccc(O)cc1)C(=O)N[C@@H](CO)C(=O)O` gave a Kd of over 1000 µM (Regulation of nuclear pre-mRNA domain-containing protein 2 (Homo sapiens, UniProt Q5VT52); binding, ITC; pH 7.5).
`CC[C@H](C)[C@H](NC(=O)CNC(C)=O)C(=O)N[C@@H](CCCNC(=N)N)C(=O)N[C@@H](CCC(=O)O)C(=O)N[C@@H](C)C(=O)N[C@H](C(=O)N[C@@H](CC(C)C)C(=O)N[C@@H](CCCNC(=N)N)C(=O)N[C@@H](C)C(=O)N[C@@H](Cc1c[nH]c2ccccc12)C(=O)N[C@@H](CCC(=O)O)C(=O)N[C@@H](CCCNC(=N)N)C(=O)N[C@@H](CCCNC(=N)N)C(=O)N[C@@H](Cc1ccc(O)cc1)C(=O)NCC(=O)N[C@@H](Cc1ccccc1)C(=O)N1CCC[C@H]1C(=O)N[C@@H](CCCNC(=N)N)C(=O)N1CCC[C@H]1C(=O)N[C@@H](CC(C)C)C(=O)N[C@@H](CCCNC(=N)N)C(=O)N[C@@H](CO)C(=O)N[C@@H](CCC(=O)O)C(N)=O)[C@@H](C)O` gave a Kd of 0.15 ± 0.04 µM (Antirepressor protein CarS (carS, Myxococcus xanthus, UniProt Q06911); ITC; pH 7.5, 25 °C).
`O=C1SCCC1NC(C(=O)NCc1ccccc1)C1CC1` (stereo not drawn) gave a Kd of 18.3 µM (TST (Homo sapiens, UniProt Q16762); binding, MST).
`CC(=O)N[C@@H](Cc1ccccc1Cl)C(=O)N1CCC[C@]12C=C[C@@H]1CC[C@@H](C(=O)N3CC[C@@H]4C=C[C@H]5CC[C@@H](C(=O)N[C@H](C(=O)N[C@@H](CCC(=O)O)C(=O)N[C@@H](CC(=O)O)C(=O)N[C@@H](CCC(=O)O)C(=O)N[C@@H](CC(C)C)C(N)=O)[C@@H](C)O)N5C(=O)[C@H]43)N1C2=O` has a Kd of 0.33 µM (Protein enabled homolog (ENAH, UniProt Q8N8S7); binding, fluorescence; pH 7.3).

Some of these lines once more:
The Kd of `CC(C)P(=[Se])(NP(=[Se])(C(C)C)C(C)C)C(C)C` is reported as 6250 µM (Alpha-amylase (Bacillus subtilis, UniProt P00691); fluorescence quenching; 298 K).
With `C[C@H](N)C(=O)N[C@@H](CCCNC(=N)N)C(=O)N[C@H](C(=O)N[C@@H](CCCCN)C(=O)N[C@@H](CCC(N)=O)C(=O)N[C@H](C(=O)N[C@@H](C)C(=O)N[C@@H](CCCNC(=N)N)C(=O)N[C@@H](CCCCN)C(=O)N[C@@H](CO)C(=O)N[C@H](C(=O)NCC(=O)O)[C@@H](C)O)[C@@H](C)O)[C@@H](C)OP(=O)(O)O` the Kd was 6.79 ± 0.67 µM (Baculoviral IAP repeat-containing protein 5.1-A (birc5.1-a, Xenopus laevis, UniProt Q8JGN5); ITC; pH 6.8, 25 °C).
